Measured values gathered from unrelated publications.
Numbers after ± are the reported error.

For `Cc1nc(=S)[nH]c(C)c1/N=N/c1nnc(S)s1`, the inhibition was 15.2 ± 0.777% (Vero; cell viability, MTT; 2.5 µg/mL).
For `CCOC(=O)c1c(C(=O)OC)cn(CC(c2cn(C)c3ccccc23)c2cn(C)c3ccccc23)c1C`, the inhibition was 8.2% (human Fibroblast; cell growth or viability, MTS; 20 µM, 24 h).
`CSc1ccc(NC(=O)c2cnn(-c3ccc([N+](=O)[O-])cc3)c2C(F)(F)F)cc1` gave an inhibition of 11.2% (LX-2; cell growth or viability, MTS; 50 µM, 72 h).
`Cc1cc(C)nc(SCC(=O)Nc2ncc(Cc3cccc(OCc4cn(-c5ccc(Cl)cc5)nn4)c3)s2)n1` has an inhibition of 13.5 ± 2.9% (HGC-27; cell viability, MTS; 10 µM).
With `Nc1ncn([C@@H]2O[C@H](CO)[C@@H](O)[C@H]2O)c(=O)n1` the inhibition was 11% (AML blasts, primary, RUNX1-mutated; CD34+ blast expansion; 2400 nM, HUVEC co-culture).
`Cc1nc2c(F)cc(-c3nc(Nc4ccc(CNC(=O)CCCCCC(=O)NO)cc4)ncc3F)cc2n1C(C)C` has an inhibition of 97.3% (SK-OV-3; cell growth or viability, CCK-8; 0.3 µM, 48 h).
For `Cc1nc(=S)[nH]c(C)c1/N=N/c1nnc(S)[nH]1`, the inhibition was 15.1 ± 0.246% (Vero; cell viability, MTT; 1.25 µg/mL).
The inhibition of `COCCn1cc(COc2cccc(Cc3cnc(NC(=O)CSc4nc(C)cc(C)n4)s3)c2)nn1` is reported as 6.8 ± 4.4% (HGC-27; cell viability, MTS; 10 µM).
The inhibition of `Cc1[nH]c(=S)[nH]c(=O)c1/N=N/c1nnc(S)s1` is reported as 18.42 ± 0.04% (Vero; cell viability, MTT; 2.5 µg/mL).
For `COc1ccc(NC(=O)c2cnn(-c3ccc([N+](=O)[O-])cc3)c2C(F)(F)F)cc1OC`, the inhibition was 4.78% (LX-2; cell growth or viability, MTS; 50 µM, 72 h).
`Cc1cc(C)nc(SCC(=O)Nc2ncc(Cc3cccc(OCc4cn(Cc5ccc(C#N)cc5)nn4)c3)s2)n1` has an inhibition of 53.1 ± 10.7% (HGC-27; cell viability, MTS; 10 µM).

Excerpt of the above:
For `COc1ccc(NC(=O)c2cnn(-c3ccc([N+](=O)[O-])cc3)c2C(F)(F)F)cc1OC`, the inhibition was 4.78% (LX-2; cell growth or viability, MTS; 50 µM, 72 h).
